# Results from different studies.
# Protocols differ between the studies behind these lines. Several values in a cell are separate wells, animals, samples, runs or records. ± marks the error that the study gave.
# OPRK1: Kappa-type opioid receptor (OPRK1, Homo sapiens, UniProt P41145)
# Sigma-2 receptor/TMEM97: Sigma-2 receptor/TMEM97 (Cavia porcellus, UniProt H0V073)
# OPRM1: Mu-type opioid receptor (OPRM1, Homo sapiens, UniProt P35372)
SMILES,target or system,test,test system,setting,measurement,value
CN1CC[C@@]23C[C@@H]1CC[C@H]2Oc1ccc(O)cc13 (racemic),OPRK1,"cell-free assay, radioligand",,,Ki,> 10 µM
CC(=O)P(=O)(O)OCc1ccccc1,porcine pyruvate dehydrogenase,competitive inhibitor,,"30 °C, with: pyruvate",Ki,882 ± 78 µM
Cc1cc(O)cc(C)c1C[C@H](N)C(=O)N[C@@H]1CCNc2ccc(Cc3cccc4ccccc34)cc21,OPRK1,"ligand displacement, radioligand",,cell membranes,Ki,0.017 µM
Nc1ncnc2c1ncn2[C@H]1C[C@H](O)[C@@H](COP(=O)(O)NP(=O)(O)OP(=O)(O)O)O1,"SAMHD1 (Homo sapiens, UniProt Q9Y3Z3)","enzyme activity, inhibitor",,,Ki,0.207 µM
N=C(N)NCCC[C@H](NC(=O)[C@H](Cc1c[nH]c2ccccc12)NC(=O)[C@H](CCCCN)NC(=O)CNC(=O)CCC(=O)N/N=C/c1ccc(/C=N/NC(=O)CCC(=O)NCC(=O)N[C@@H](CCCCN)C(=O)N[C@@H](Cc2c[nH]c3ccccc23)C(=O)N[C@@H](CCCCNC(=O)c2ccc(C(=O)NC(=N)N)[nH]2)C(N)=O)cc1)C(N)=O,"Tryptase beta-2 (TPSB2, Homo sapiens, UniProt P20231)",non-competitive inhibitor,,,Ki,0.121 µM
C[C@@H]1O[C@@H](O[C@H]2C[C@@H](O)[C@]3(CO)[C@H]4[C@H](O)C[C@]5(C)[C@@H](C6=CC(=O)OC6)CC[C@]5(O)[C@@H]4CC[C@]3(O)C2)[C@H](O)[C@H](O)[C@H]1O,"ATP1A1 (Sus scrofa, UniProt P05024)",enzyme activity,purified pig kidney enzyme,"10 min preincubation, 37 °C, no DMSO",Ki,1.26 ± 0.04 µM
CCCCCCCCCCCCC/C=C/[C@H](O)[C@@H](N)CO,"SIGMAR1 (Cavia porcellus, UniProt Q60492)","ligand displacement, radioligand",,,Ki,0.02 µM
c1ccc(CCN2CCCCC2)cc1,"dopamine receptors, bovine",binding,bovine striatum,with: [3H]spiperone 0.3 nM,Ki,> 10 µM
CCCCCCCSCC(=O)c1ccccc1O,"KAT8 (Homo sapiens, UniProt Q9H7Z6)","enzyme activity, inhibitor",,"up to 400 µM, with: 4 µM acetyl-CoA, 60 µM histone substrate",Ki,no inhibition
CN(C)CCN(C)CCc1ccc(Cl)c(Cl)c1,Sigma-2 receptor/TMEM97,binding,guinea pig brain,"sigma-2 site, high-affinity site, with: 3 nM [3H]DTG, (+)-pentazocine",Ki,0.0475 µM
O=C(O)[C@@H]1CCO1,"putA, PRODH domain (Escherichia coli, UniProt P09546)",competitive inhibitor,,"pH 7.5, room temperature, with: L-proline",Ki,~1500 µM and 1400 µM
OC[C@H]1O[C@@H](n2cnc3c2N=CNC[C@H]3O)C[C@@H]1O,"MTA/SAH deaminase (Pseudomonas aeruginosa, UniProt Q9HZ64)",inhibitor,,"pH 7.4, 25 °C, with: MTA 100 µM",Ki,0.037 ± 0.001 µM
CCCN(CCC1(O)CC(NS(=O)(=O)c2ccc(F)c(Cl)c2)C1)[C@H]1CCc2nc(N)sc2C1 (stereo in doubt),"dopamine D2-like receptor, rat",radioligand binding,rat striatal membranes,"high-affinity component, with: [3H]spiperone",Ki,2.42 ± 0.118 µM
CCNC(=O)[C@H]1O[C@@H](n2cnc3c(N)nc(NCCc4ccc(CCC(=O)NCCN)cc4)nc32)[C@H](O)[C@@H]1O,"ADORA3 (Homo sapiens, UniProt P0DMS8)","ligand displacement, radioligand",,cell membranes,Ki,0.038 µM
CCCCC[C@H](O)/C=C/[C@H]1CCC(=O)[C@@H]1C/C=C\CCCC(=O)O,"Ptger4 (Rattus norvegicus, UniProt P43114)","ligand displacement, radioligand",,,Ki,0.00042 µM
CCCCN1C(=O)C(C=CC=CC=C2C(=O)N(c3ccc(S(=O)(=O)O)cc3)N=C2C)C(=O)N(CCCC)C1=O,"SLC4A1 (Homo sapiens, UniProt P02730)","chloride exchange, 36Cl flux, measured: chloride-loaded transporter",,"0 °C, equilibrium binding",Ki,0.19 ± 0.06 µM
CN(CCOC/C=C/c1ccccc1)Cc1ccccc1,OPRM1,,,,Ki,2.76 to 3.04 µM
C[C@H]1CN(C[C@H]2Cc3ccc(O)cc3CN2)CC[C@@]1(C)c1cccc(O)c1,OPRM1,"ligand displacement, radioligand",,,Ki,0.03 µM
CC[C@H]1O[C@]2(C)[C@H](OC(C)=O)[C@@]1(C)O[C@@H](/C=C/C=C/C=C/c1oc(=O)cc(OC)c1C)[C@@H]2O,"atpD, in F1Fo complex (Escherichia coli, UniProt P0ABB4)",ATP hydrolysis,Escherichia coli everted membranes,enzyme-substrate complex,Ki,0.29 ± 0.02 µM
O=C(O)[C@H]1O[C@H](OP(=O)(O)OP(=O)(O)OC[C@H]2O[C@@H](n3ccc(=O)[nH]c3=O)[C@H](O)[C@@H]2O)[C@H](O)[C@@H](O)[C@@H]1O,"P2Y purinoceptor 14 (P2RY14, Homo sapiens, UniProt Q15391)",ligand displacement,,,Ki,5.3 µM
CC=O,"ADH1 (Saccharomyces cerevisiae, UniProt P00330, H45R/H49Q)","product inhibition slope, inhibitor",,"pH 7.3, 30 °C",Ki,1100 µM
CC[C@H](C)CN(C[C@@H](O)[C@H](Cc1ccccc1)NC(=O)[C@@H](NC(C)=O)[C@@H](C)CC)S(=O)(=O)c1ccc2ncsc2c1,"Gag-Pol polyprotein, protease (Human immunodeficiency virus type 1 group M subtype B, UniProt P03369, A561V/G563S/I574V/L500I/L580M)",,,,Ki,4.8e-05 ± 2.2e-05 µM
CCCCOC(=O)c1ccccc1C(=O)OCc1ccccc1,"SULT2A1 (Homo sapiens, UniProt Q06520)",inhibitor,human liver cytosol,"pH 7.0, with: [3H]DHEA 2.5 to 20 nM",Ki,7 ± 0.8 µM
C[C@]1(C(=O)O)C[C@H]1[C@H](N)C(=O)O.Cl,"kainate receptor, rat",[3H]kainate displacement,cortical synaptosomes,,Ki,0.11 µM
CC1(C)Oc2cc(C(=O)N3C4CC5CC3CC(C4)O5)cc(O)c2[C@@H]2C[C@H](O)CC[C@H]21,"Cnr1 (Rattus norvegicus, UniProt P20272)","[3H]CP-55,940 displacement",rat brain membranes,"with: [3H]CP-55,940",Ki,no binding
N[C@@H](CCC(=O)O)C(=O)O,anandamide membrane transporter rat,"[3H]anandamide uptake, non-competitive inhibitor",brain synaptosomes,,Ki,3.3 ± 0.31 µM
Nc1ccccc1C(=O)O,mushroom tyrosinase,"diphenolase activity, inhibitor",,"pH 6.8, 20 °C, with: caffeic acid substrate",Ki,4.72 µM
CN1CCN(CCc2ccc(Cl)c(Cl)c2)CC1,Sigma-2 receptor/TMEM97,binding,guinea pig brain,"low-affinity site, two-site fit, with: [3H]DTG 3 nM with (+)-pentazocine 200 nM",Ki,53.7 µM
O=C(O)[C@H]1NC[C@@H]2C(O)=NO[C@@H]21,"Slc1a1 (Rattus norvegicus, UniProt P51907)","anion current, inhibitor, whole-cell patch clamp",HEK-293T,"homo-exchange mode, with: glutamate 20 µM",Ki,19 ± 3.3 µM
CN[C@@](C)(C[18F])C(=O)O,,,"SCID mouse U87 xenograft, heart","120 min, post injection",tissue uptake,3.9 ± 0.6 %ID/g
O=C(O)c1cccc(Cc2ccc(F)cc2)c1,"Envelope glycoprotein gp160, gp41 hydrophobic pocket (env, Human immunodeficiency virus type 1 group M subtype B, UniProt P04578)",,HIV-1,,Ki,550 ± 50 µM
O=C(/C=C/c1ccoc1)N[C@@H]1CC[C@@]2(O)[C@H]3Cc4cccc5c4[C@@]2(CCN3CC2CC2)[C@H]1O5,"Oprd1 (Mus musculus, UniProt P32300)","binding, radioligand displacement",,with: [3H]diprenorphine,Ki,0.34 ± 0.096 µM
NC(=O)CC[C@H](N)C(=O)O,anandamide membrane transporter rat,"[3H]anandamide uptake, non-competitive inhibitor",brain synaptosomes,,Ki,0.85 ± 0.08 µM
CC(C)[C@@H](CN1CC[C@@](C)(c2cccc(O)c2)[C@@H](C)C1)NC(=O)[C@H]1Cc2ccc(O)cc2CN1,"Nociceptin receptor (OPRL1, Homo sapiens, UniProt P41146)","ligand displacement, radioligand",,,Ki,0.0167 µM
CN(C(=O)/C=C/c1ccoc1)[C@H]1CC[C@@]2(O)[C@H]3Cc4cccc5c4[C@@]2(CCN3CC2CC2)[C@H]1O5,"Oprm1 (Mus musculus, UniProt P42866)","ligand displacement, radioligand",,,Ki,0.00959 µM
